Experimental data pooled from the literature.
Parts stem from different laboratories: compare values within a part only.
Chain of UniProt O23661 (whole entry, looked up): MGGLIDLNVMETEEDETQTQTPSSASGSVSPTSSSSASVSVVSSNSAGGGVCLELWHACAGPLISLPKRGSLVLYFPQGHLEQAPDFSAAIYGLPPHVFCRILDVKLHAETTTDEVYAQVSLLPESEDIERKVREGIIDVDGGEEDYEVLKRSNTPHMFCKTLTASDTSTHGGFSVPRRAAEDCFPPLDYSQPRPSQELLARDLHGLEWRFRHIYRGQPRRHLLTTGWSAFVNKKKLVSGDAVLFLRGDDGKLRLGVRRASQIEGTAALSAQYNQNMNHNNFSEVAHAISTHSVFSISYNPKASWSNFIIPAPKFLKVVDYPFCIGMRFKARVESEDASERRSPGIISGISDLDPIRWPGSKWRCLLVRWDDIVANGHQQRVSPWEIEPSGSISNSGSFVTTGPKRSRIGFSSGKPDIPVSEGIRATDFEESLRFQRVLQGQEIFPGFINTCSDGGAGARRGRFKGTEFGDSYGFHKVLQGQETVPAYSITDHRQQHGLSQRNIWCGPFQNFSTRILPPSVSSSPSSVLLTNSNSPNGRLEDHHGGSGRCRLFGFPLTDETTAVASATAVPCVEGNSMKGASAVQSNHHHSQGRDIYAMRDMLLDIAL

Series 1
Target: Histone acetyltransferase KAT6A, winged helix 1, GST fusion (KAT6A, Homo sapiens, UniProt Q92794, residues 1-85)
Technique: protein binding microarray
Molecule type: double-stranded DNA, one strand shown
Matrix: in vitro
Tested at: not given
Setting: 8-mer, flanks averaged, mean of 2 arrays, mostly near background
Baseline: not given
Direction: higher = stronger binding
Construct (chain): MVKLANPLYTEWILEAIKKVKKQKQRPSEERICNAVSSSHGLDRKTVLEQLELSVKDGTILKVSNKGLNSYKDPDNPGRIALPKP
| Strand | E-score |
| --- | --- |
| CGGTGCGC | 0.387 |
| GAGGCCAC | -0.0485 |
| CAAGCTTG | -0.0236 |
| GGTCCCAC | 0.0127 |
| CACAACTA | -0.0309 |
| CCCTACCG | 0.123 |
| ATATATCG | -0.0662 |
| GGCCGTCA | 0.319 |

Series 2
Target: RNA binding protein fox-1 homolog 2, RRM domain, GST-SBP tag (RBFOX2, Homo sapiens, UniProt O43251-10, residues 100-194)
Technique: RNA Bind-n-Seq
Molecule type: RNA
Matrix: in vitro
Tested at: 365 nM
Setting: natural RNA segment, single round, ends assumed
Baseline: no-protein control
Direction: higher = stronger binding
All sequences stand within: GGGAGUUCUACAGUCCGACGAUC … UGGAAUUCUCGGGUGCCAA
Residues (chain): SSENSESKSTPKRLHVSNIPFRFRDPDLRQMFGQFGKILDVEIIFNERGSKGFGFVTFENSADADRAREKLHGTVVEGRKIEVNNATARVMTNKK
| Strand | RBNS enrichment (R) |
| --- | --- |
| AGAAAGGGACUUUUUUUCCUUUCUUUUCAUAAUGAAGCAGAUCAACUUAAAGGAUAAUAAAAUUUUUAAAGAAAAGAUAUUCUAAUGUACUCUCAAUAAUUCUACAGAAA | 0.763 |
| ACAGCGGCCUCAGCGUCCCCAGAGCCGAGCCAGGGUGUGAGUGCAUGUGAACGUUGAGUACACAUGAGUGCGUGUAUGCCCCCAGGCUGGGUCAGCUCUUCUGUGGAUUG | 0.568 |
| GUAUUGAAUUAUCUGUGGAAUGCAUUGUGAACUGUAAAGCAAAGUAUCAAUAAAGCUUAUAGACUUACCUUUGUGUUUAGUGUUUUAGUUUCAUGAAUGCACAGCAAAAA | 0.731 |
| AGUGACUGAUCUUUGGGAAUGUCUUGUCUUUGCAUGGGGCUCAUAGAGAUGUGUGCAGACUUGCUUAUUGUGGUUAGUGUGUAUCAGGAACACACACACAGGUGUUCUGA | 2.28 |
| AGAGCUGUCUUGGCUAAUACUCUGCACCACAAUUGUGAUGUCCUAGUCCUACCACUAGAGGGCAUGGUACAGCCUGGCAAAAGUUAAAAGGGGUGUGGCAGCUCCCAUCA | 0.336 |
| GCCCCUCGGCUCUGCCGCGGUGGGCCGAGGCCGCUGUUGGGGGUUUCCCUGUGUGGACCAUGGGGAUCAGAGUCUGGCCUGCCAGGCUCCUCUCCCCGUUUUCUCUUUUG | 0.2 |
| UUAUAAGAUGAAGCGUAGUGAAUUGUACAGCUGUUGUAAUAAUGACCUAUUUCUAUAUAAAAUAAAAUUGUAUGGCUUAUGUGUAAAUUAUUUUGUAUCUGAGAUACCAG | 0.535 |
| AAGUCUAUCUUGAAGCUGCCUGUUUGAAGUUUCCCAUGCGUCGCCUUGUGCUUCGGUUUCUAAGGGCCCUGUGGUGUGCAGUGAGCUCCCUUCCCGGCACGUGGAUUUUU | 0.219 |

Other studies, line by line
B1: ARF2 727-859 (Arabidopsis thaliana, UniProt Q94JM3); chain TKTNSSRSCTKVHKQGIALGRSVDLSKFQNYEELVAELDRLFEFNGELMAPKKDWLIVYTDEENDMMLVGDDPWQEFCCMVRKIFIYTKEEVRKMNPGTLSCRSEEEAVVGEGSDAKDAKSASNPSLSSAGNS
| Sequence | target or system | assay | system | conditions | scale | measurement | value |
| --- | --- | --- | --- | --- | --- | --- | --- |
| FMKSRVYSI | HLA class I histocompatibility antigen, A alpha chain, allele A*80:01 (Homo sapiens, UniProt P04439) | peptide-MHC binding | peptide | concentration not given |  | binding | inactive |
| B1 (ARF2 727-859) | ETT (Arabidopsis thaliana, UniProt O23661) | two-hybrid |  |  | baseline: out of 4 tests, higher = firmer interaction | positive tests | 0 |

A few entries again (series 1):
| Strand | E-score |
| --- | --- |
| CCCTACCG | 0.123 |
| ATATATCG | -0.0662 |
| GGCCGTCA | 0.319 |
